Assay results from different studies.
A part holds a random share of what one study measured.

Set 1
Target: Prothrombin, mature alpha-thrombin (F2, Homo sapiens, UniProt P00734)
Technique: aptamer microarray, sandwich
Molecule type: DNA with 2'F-ANA
Medium: in vitro
Concentration: 200 nM
Setting: whole 15-mer aptamer, many near background
With: Cy3 exosite-II aptamer, 400 nM
Direction: higher = stronger binding
Sequence: GGTTGGTGTGGTTGG
| Modification | mean fluorescence intensity [a.u.] |
| --- | --- |
| 2'F-ANA at 4 6 8 9 11 13 15 | 153 |
| 2'F-ANA at 4 8 11 13 14 15 | 91.2 |
| 2'F-ANA at 3 6 7 8 12 13 15 | 1180 |
| 2'F-ANA at 5 6 8 12 15 | 163 |
| 2'F-ANA at 2 3 4 5 9 10 13 14 | 55.9 |
| 2'F-ANA at 6 7 9 10 11 13 15 | 148 |

Set 2
Target: Histone acetyltransferase KAT6A, winged helix 1, GST fusion (KAT6A, Homo sapiens, UniProt Q92794, residues 1-85)
Technique: protein binding microarray
Molecule type: double-stranded DNA, one strand shown
Medium: in vitro
Concentration: not given
Setting: 8-mer, flanks averaged, mean of 2 arrays, mostly near background
Reference: not given
Direction: higher = stronger binding
Target sequence (chain): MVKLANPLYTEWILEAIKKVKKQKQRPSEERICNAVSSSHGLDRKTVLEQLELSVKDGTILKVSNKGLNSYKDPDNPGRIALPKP
| Sequence | E-score |
| --- | --- |
| CACCGGAC | 0.129 |
| CGCAGCAC | 0.163 |
| GCTCACTA | 0.0324 |
| ACGAAATA | -0.152 |
| CTCCATTA | -0.0467 |
| AGCACCCC | -0.00556 |

Set 3
Target: Interferon regulatory factor 7, full length, phosphomimetic (IRF7, Homo sapiens, UniProt Q92985, residues 1-503, S471D/S472D/S475D/S476D/S477D/S483D/S484D/S487D)
Technique: protein-binding microarray
Molecule type: double-stranded DNA, one strand shown
Medium: in vitro
Concentration: 2200 nM top
Setting: 60-bp whole probe
With: salmon DNA 0.4 mg/ml
Reference: random background probes
Direction: higher = stronger binding
All sequences stand within: GCCTAGCAC … GTCTTGATTCGCTTGACGCTGCTG
Target sequence (chain): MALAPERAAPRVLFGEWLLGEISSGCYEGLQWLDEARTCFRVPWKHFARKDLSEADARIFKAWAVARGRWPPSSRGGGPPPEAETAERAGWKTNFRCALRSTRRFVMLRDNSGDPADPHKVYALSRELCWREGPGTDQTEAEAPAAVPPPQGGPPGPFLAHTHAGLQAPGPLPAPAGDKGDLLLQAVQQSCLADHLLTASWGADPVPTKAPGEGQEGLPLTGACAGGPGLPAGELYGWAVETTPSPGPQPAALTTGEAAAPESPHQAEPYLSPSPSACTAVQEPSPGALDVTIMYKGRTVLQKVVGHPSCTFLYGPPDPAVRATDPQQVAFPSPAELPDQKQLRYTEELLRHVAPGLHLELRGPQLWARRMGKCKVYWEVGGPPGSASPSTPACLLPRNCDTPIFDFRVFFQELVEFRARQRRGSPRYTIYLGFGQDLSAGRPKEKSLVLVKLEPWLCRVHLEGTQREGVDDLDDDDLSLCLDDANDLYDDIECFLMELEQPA
| Sequence | fitted relative affinity [z-score] |
| --- | --- |
| TTAGAACGGGGGTATCGATTAGTGCTA | 1.05 |
| TCATTTTTTTTTTTTGGACTGTGCTAG | 1.91 |
| TTAGCTTTCAGACTGGATTAGTGCTAG | 0.489 |
| TTAGGACTGCTTATGCTTTAGTGCTAG | 0.0384 |
| TTAGGTTTCGGACTGGATTAGTGCTAG | 2.81 |
| GACGGATCCGGTTTCGGGACGTGCTAG | 3.92 |
| GACGAACTGAGTTTCGATACGTGCTAG | 3.37 |
| TTAGGTTTCGACTATCGCTTAGTGCTA | 3.05 |
| TTAGGTTTCGACTATGGGTTAGTGCTA | 2.78 |
| TTAGGTATCGGGACTGGGATAGTGCTA | -0.451 |

Mixed results
| Molecule | target | test | test system | setting | scale | measurement | value |
| --- | --- | --- | --- | --- | --- | --- | --- |
| PhoQ, residues 284 288 289 292 302 303 TYGVAM | PhoP, residues 12 14 15 18 19 NIMAP (Escherichia coli, UniProt P23836) | Sort-seq, item: YFP reporter | E. coli | PhoQ-PhoP variant library, with: 10 µM Mg2+ | reference: high Mg2+ state, higher = stronger signaling | fold induction | 1.09 |

A few entries again (set 3):
| Sequence | fitted relative affinity [z-score] |
| --- | --- |
| TTAGCTTTCAGACTGGATTAGTGCTAG | 0.489 |
